Published values collected from several papers.
Parts stem from different laboratories: compare values within a part only.
UniProt Q03141, sequence (whole entry, looked up): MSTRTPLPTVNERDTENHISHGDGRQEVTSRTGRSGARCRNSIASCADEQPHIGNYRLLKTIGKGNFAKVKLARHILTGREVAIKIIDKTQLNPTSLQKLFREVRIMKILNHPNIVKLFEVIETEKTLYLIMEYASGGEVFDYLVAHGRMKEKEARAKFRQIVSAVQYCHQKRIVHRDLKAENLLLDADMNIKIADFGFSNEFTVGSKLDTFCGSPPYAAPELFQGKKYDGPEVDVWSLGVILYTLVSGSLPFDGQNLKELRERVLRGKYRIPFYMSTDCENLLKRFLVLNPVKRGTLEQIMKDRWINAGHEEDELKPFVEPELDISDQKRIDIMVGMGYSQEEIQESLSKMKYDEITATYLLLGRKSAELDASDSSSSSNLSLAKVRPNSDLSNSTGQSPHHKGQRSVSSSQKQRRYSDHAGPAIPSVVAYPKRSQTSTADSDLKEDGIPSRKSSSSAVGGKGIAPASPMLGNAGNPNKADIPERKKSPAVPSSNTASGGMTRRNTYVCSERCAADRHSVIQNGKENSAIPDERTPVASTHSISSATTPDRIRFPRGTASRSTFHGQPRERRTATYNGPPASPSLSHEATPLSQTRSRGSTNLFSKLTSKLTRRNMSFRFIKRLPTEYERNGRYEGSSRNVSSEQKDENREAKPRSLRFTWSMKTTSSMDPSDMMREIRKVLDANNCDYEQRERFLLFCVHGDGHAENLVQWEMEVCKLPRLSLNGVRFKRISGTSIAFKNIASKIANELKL

Block 1
Organism: Plasmodium berghei
Mode: inhibitor
Cells: Huh-7
Strain: GFP-expressing sporozoites, liver stage
Concentration: 10 µM
Time: 24 h
Relative to: untreated control
SMILES | infection rate [%]
O=C1CC2(CCCC2)CC(=O)N1CCCCN1CCN(c2ncccn2)CC1 | 72.5
O=C(O)[C@H]1/C(=C/CO)O[C@@H]2CC(=O)N21 | 103
O=C(O)CCCCCCCC(=O)O | 112

Block 2
Organism: Sarcocystis neurona
Observed: parasite growth
Concentration: 10 µM
Time: 96 h
Setting: first screen
Structure (SMILES) | inhibition [%]
CC(=O)NCCCCCCNC(C)=O | 0.9
CCOc1cc(CC(=O)N[C@@H](CC(C)C)c2ccccc2N2CCCCC2)ccc1C(=O)O | 35.1
O=c1cnn([C@@H]2O[C@H](CO)[C@@H](O)[C@H]2O)c(=O)[nH]1 | -15.5
CCOC(=O)[C@H](CCc1ccccc1)N[C@H]1CCc2ccccc2N(CC(=O)O)C1=O | -16.5

Block 3
Target: 5-hydroxytryptamine receptor 1A (HTR1A, Homo sapiens, UniProt P08908)
UniProt P08908, sequence (whole entry, looked up): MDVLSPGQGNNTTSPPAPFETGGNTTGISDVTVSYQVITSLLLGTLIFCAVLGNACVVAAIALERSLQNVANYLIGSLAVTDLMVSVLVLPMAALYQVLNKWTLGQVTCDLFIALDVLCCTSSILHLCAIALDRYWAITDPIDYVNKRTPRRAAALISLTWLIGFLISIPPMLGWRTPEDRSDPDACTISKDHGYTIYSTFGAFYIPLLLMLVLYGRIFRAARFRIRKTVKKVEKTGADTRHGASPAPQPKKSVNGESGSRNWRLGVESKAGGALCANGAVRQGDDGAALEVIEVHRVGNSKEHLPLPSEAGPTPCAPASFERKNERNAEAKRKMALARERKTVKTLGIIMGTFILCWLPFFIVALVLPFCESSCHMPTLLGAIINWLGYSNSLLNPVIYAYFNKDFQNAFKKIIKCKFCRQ
Observed: ligand displacement
Method: radioligand
Concentration: 10 µM
Structure (SMILES) | inhibition [%]
CN(C)CC#Cc1ccc(OCCCc2sc(N3CCc4cccc(C(=O)Nc5nc6ccccc6s5)c4C3)nc2C(=O)O)c(F)c1 | 5.18
O=C([C@H]1C[C@H](O)CN1c1ccc(Cl)cc1)N1CC2COCC(C1)N2Cc1ccc(Cl)cc1 | -16
Cc1nccc(COC(=O)N2C[C@@H]3[C@@H](CNC(=O)c4ccc5[nH]nnc5c4)[C@@H]3C2)n1 | -7.66
CCNC(=O)c1cc2c(N3CCOC[C@@H]3C)ccnc2[nH]1 | 69.8
O=C(NC[C@@H]1[C@H]2CN(C(=O)OCc3cc(C(F)(F)F)cc(C(F)(F)F)c3)C[C@@H]12)c1ccc2[nH]nnc2c1 | 0.91
C[C@H](NC(=O)c1cnc2n1[C@](C)(Cc1ccc(C#N)cc1)C(=O)N2c1cc(Cl)c(F)c(Cl)c1)C(=O)NC1(c2ccccn2)CC1 | -9.74
O=C(c1ccc(F)cc1)N1CC(COc2ccc(Br)cc2)(C(=O)O)C1 | -18.1
NS(=O)(=O)c1cc(NC(=O)C2(c3ccccc3Cl)CC2)ccc1Oc1cccc(Cl)c1 | 4.89
CCOC(=O)c1cc2cc(-c3cc(C(=O)NCc4ccc(C(=O)O)cc4)nn3C)ccc2[nH]1 | -13.5
CCS(=O)(=O)c1cc2cc(C[C@@](O)(CC(C)(C)c3ccc(F)cc3C(N)=O)C(F)(F)F)[nH]c2cn1 | -7.37
Cc1c[nH]c2nccc(Oc3c(F)cc(Nc4cc(Cl)nc(N)n4)cc3F)c12 | 11.7
CCC(=N\O)/C(C)=C/c1ccc(F)cc1 | 6.81
O=C(NCc1ncc(C(F)(F)F)cc1Cl)c1ccc2c(c1)C1(CCS(=O)(=O)CC1)[C@H](C1CC1)N2S(=O)(=O)c1ccc(F)cc1 | -17.3
CC(=O)N1CCC(c2ccc(C(=O)NC(=N)N)cc2C(F)(F)F)CC1 | -5.21
Cc1c(NC(=O)c2cc(C(N)=O)nc3cc(F)ccc23)c(C(F)(F)F)nn1Cc1ccc(C(C)(C)C)cc1 | 18.6
O=C(Nc1cccnn1)N1CCC(=Cc2cccc(Oc3ccc(C(F)(F)F)cn3)c2)CC1 | 20.2
CC(C)CC(=O)N1CCc2nc(-c3ccc(Br)cc3)nc(N(C)Cc3ccccc3)c2C1 | -0.56
CCCCN(CCCC)C(=O)CN1C[C@H](c2cc(OC)c3c(c2)OCO3)[C@@H](C(=O)O)[C@@H]1CC(C)(C)CCC | 20.6

Block 4
SMILES: COc1cc(C(=O)N2CCC(N3CCN(C)CC3)CC2)ccc1Nc1ncc2c(n1)N(C)c1ccccc1C(=O)N2C
target | test | system | setting | inhibition
MAP/microtubule affinity-regulating kinase 3 (Mark3, Mus musculus, UniProt Q03141) | KiNativ profiling | mouse brain lysate | 1 µM, LYS1 site, with: ADP acyl phosphate probe | 0.3%
mouse CaMK2γ | probe labelling, KiNativ ATP probe | mouse brain lysate | 0.1 µM, LYS1 site TSTQEYAAkIINTK | -26.8%
PRKX and PRKY human | KiNativ profiling | human PBMC | 1 µM, LYS1 site, with: ADP acyl phosphate probe | -8.5%
ZAP70 (human) | probe labelling, KiNativ, measured: activation loop peptide | PBMC lysate (human) | 0.1 µM, with: ADP acyl-phosphate probe | -6.4%
mouse JNK1/JNK2/JNK3 | probe labelling, KiNativ ADP probe | mouse brain lysate | 0.1 µM, LYS2 site DLkPSNIVVK | 1.1%
FER (mouse) | probe labelling, KiNativ ADP probe | mouse brain lysate | 1 µM, LYS1 labelled site | -4%

Block 5
Compound: O=C1CCC(N2Cc3cc(C4CCN(Cc5ccccc5)CC4)ccc3C2=O)C(=O)N1 (stereo not shown)
Sample: plasma
species | route | dose | time | concentration [ng/mL]
male CD-1 mouse | intravenous | 1 mg/kg | 8 h | 9.19
male Sprague-Dawley rat | oral | 3 mg/kg | 6 h | 15.3
male CD-1 mouse | intravenous | 1 mg/kg | 30 min | 104
male Sprague-Dawley rat | intravenous | 1 mg/kg | 8 h | 7.65
male Sprague-Dawley rat | intravenous | 1 mg/kg | 1 h | 64.4
male Sprague-Dawley rat | intravenous | 1 mg/kg | 4.98 min | 112

Some of these lines once more (block 4):
target | test | system | setting | inhibition
mouse CaMK2γ | probe labelling, KiNativ ATP probe | mouse brain lysate | 0.1 µM, LYS1 site TSTQEYAAkIINTK | -26.8%
PRKX and PRKY human | KiNativ profiling | human PBMC | 1 µM, LYS1 site, with: ADP acyl phosphate probe | -8.5%
ZAP70 (human) | probe labelling, KiNativ, measured: activation loop peptide | PBMC lysate (human) | 0.1 µM, with: ADP acyl-phosphate probe | -6.4%
